Assay results collected from several papers.
Each numbered part is a random draw from the data of one study; scales do not carry over between parts.

Series 1 — technique: protein binding microarray; form: double-stranded DNA, one strand shown; medium: in vitro; tested at: not given; reference: not given; direction: higher = stronger binding
Target: Histone acetyltransferase KAT6A, winged helix 2, GST fusion (KAT6A, Homo sapiens, UniProt Q92794, residues 85-181)
Setting: 8-mer, flanks averaged, mean of 2 arrays, mostly near background
Target sequence (chain): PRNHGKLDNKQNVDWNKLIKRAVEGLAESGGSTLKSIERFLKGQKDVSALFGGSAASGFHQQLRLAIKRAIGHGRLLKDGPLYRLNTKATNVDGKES
Sequence	E-score
ATAGTCTA	-0.124
ACTGCGTA	0.0538
AGGCCACG	0.0297
CTCTGCTA	0.0453

Series 2 — technique: protein-binding microarray; form: double-stranded DNA, one strand shown; medium: in vitro; tested at: 250 nM; setting: 60-bp whole probe; with: salmon DNA 0.4 mg/ml; reference: random background probes; direction: higher = stronger binding
Target: Interferon regulatory factor 7, full length, phosphomimetic (IRF7, Homo sapiens, UniProt Q92985, residues 1-503, S101K/S471D/S472D/S475D/S476D/S477D/S483D/S484D/S487D)
Construct (chain): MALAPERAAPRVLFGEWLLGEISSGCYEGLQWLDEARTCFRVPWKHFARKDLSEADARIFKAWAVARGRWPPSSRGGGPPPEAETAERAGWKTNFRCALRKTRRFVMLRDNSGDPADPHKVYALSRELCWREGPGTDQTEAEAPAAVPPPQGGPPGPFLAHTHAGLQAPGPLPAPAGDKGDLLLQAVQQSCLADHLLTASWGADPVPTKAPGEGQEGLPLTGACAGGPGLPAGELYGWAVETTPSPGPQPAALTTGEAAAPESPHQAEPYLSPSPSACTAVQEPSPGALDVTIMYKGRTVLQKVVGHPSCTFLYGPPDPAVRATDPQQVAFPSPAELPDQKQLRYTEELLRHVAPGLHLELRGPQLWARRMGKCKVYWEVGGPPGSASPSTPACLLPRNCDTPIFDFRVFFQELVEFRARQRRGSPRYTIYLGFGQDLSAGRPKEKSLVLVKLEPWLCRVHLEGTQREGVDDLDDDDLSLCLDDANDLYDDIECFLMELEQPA
Sequence	log fluorescence [z-score]
GCCTAGCACTAATTTCCATTTTCTAAATTCGTGCTAGTCTTGATTCGCTTGACGCTGCTG	4.26
GCCTAGCACTTGGATATCAGTCTCGATTAGTGCTAGGTCTTGATTCGCTTGACGCTGCTG	1.54
GCCTAGCACTTAGGGCTGGGACTGGGTTAGTGCTAGGTCTTGATTCGCTTGACGCTGCTG	-0.458

Series 3 — technique: universal PBM; form: double-stranded DNA, one strand shown; medium: in vitro; tested at: not given; direction: higher = stronger binding
Target: Sal-like protein 4, full length isoform B (SALL4, Homo sapiens, UniProt Q9UJQ4-2, residues 1-616)
Setting: 8-mer, flanks averaged, mean of replicates
Target sequence (chain): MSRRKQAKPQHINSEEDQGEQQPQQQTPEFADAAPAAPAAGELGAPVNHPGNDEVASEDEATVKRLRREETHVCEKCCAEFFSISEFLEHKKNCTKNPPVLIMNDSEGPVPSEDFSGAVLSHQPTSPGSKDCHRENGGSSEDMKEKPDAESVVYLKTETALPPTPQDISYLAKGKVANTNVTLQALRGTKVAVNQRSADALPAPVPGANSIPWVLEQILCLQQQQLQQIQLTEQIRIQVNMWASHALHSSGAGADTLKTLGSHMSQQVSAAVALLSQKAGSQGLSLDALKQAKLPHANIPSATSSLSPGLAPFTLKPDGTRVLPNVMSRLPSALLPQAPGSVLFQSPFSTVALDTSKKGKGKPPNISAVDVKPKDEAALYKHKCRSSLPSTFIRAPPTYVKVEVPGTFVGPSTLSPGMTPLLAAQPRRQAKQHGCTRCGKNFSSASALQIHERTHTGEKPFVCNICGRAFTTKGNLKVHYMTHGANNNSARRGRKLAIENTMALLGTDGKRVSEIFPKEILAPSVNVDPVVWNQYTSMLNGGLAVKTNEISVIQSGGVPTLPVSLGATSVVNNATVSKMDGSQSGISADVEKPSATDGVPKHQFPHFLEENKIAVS
Sequence	E-score
CGAGCGCA	-0.0635
AGCTCAGC	-0.231
CCACCTGC	-0.271

Mixed results
Molecule	target	assay	system	setting	how to read	quantity	result
PhoQ, residues 284 288 289 292 302 303 SIHLQL	PhoP, residues 12 14 15 18 19 GQALL (Escherichia coli, UniProt P23836)	Sort-seq, item: YFP reporter	E. coli	PhoQ-PhoP variant library, with: 10 µM Mg2+	reference: high Mg2+ state, higher = stronger signaling	fold induction	27.7
